Published values pooled from the literature.
Lines come from different studies, so protocols differ.
Cell line: HOP-92

With `CCOc1ccc(-c2nc3cc(-c4nc5cc(N6CCN(C)CC6)ccc5[nH]4)ccc3[nH]2)cc1OCC` the growth percent was 48.8% (SRB; 10 µM, 48 h).
With `CCCCCCCCCCCCCCCCCCOc1ccc(CC(=O)OCC[N+]2(C)CCCC2)cc1` the growth inhibition was less than 0% (SRB; 10 µM).
For `O=C(Nc1nnc2n3c(Cc4ccccc4)n[nH]c3nc(-c3ccc(Cl)cc3)c1-2)c1ccccc1`, the cell growth was 98.2% (SRB; 10 µM, NCI60 single-dose screen; reference: untreated).
With `CCCc1n(Cc2ccc3ccccc3c2)c2ccccc2[n+]1Cc1ccc2ccccc2c1.[Br-]` the TGI was 0.911 µM (NCI60 five-dose screen).
`O=C1NC(c2ccccc2)(c2ccccc2)C(=O)N1Cc1cn(-c2cc3ccccc3oc2=O)nn1` gave a growth percentage of 76.6% (NCI60 single-dose screen; 10 µM).
`O=C(Nc1nnc2n3c(nc(-c4ccc(Cl)cc4)c1-2)SCC3=O)c1ccccc1` gave a cell growth of 85.5% (SRB; 10 µM, NCI60 single-dose screen; reference: untreated).
The TGI of `Cc1n(Cc2ccc3ccccc3c2)c2ccccc2[n+]1Cc1ccc2ccccc2c1.[Br-]` is reported as 2.06 µM (NCI60 five-dose screen).
For `CCOC(=O)CSc1nc(-c2ccc(Cl)cc2)c2c(NC(=O)c3ccccc3)nnc-2[nH]1`, the cell growth was 109% (SRB; 10 µM, NCI60 single-dose screen; reference: untreated).
For `O=C1NC(c2ccccc2)(c2ccccc2)C(=O)N1Cc1cn(-c2c3ccccc3nc3ccccc23)nn1`, the growth percentage was 67.3% (NCI60 single-dose screen; 10 µM).
For `CCN(CC)c1ccc(C=NNC(=O)CSc2nc3ccccc3c(=O)n2Cc2ccc(S(N)(=O)=O)cc2)c(O)c1`, the TGI was greater than 100 µM (NCI five-dose screen).
The GI50 of `Cn1cncc1C1=CN(c2ncnc3[nH]cnc23)CCS1` is reported as 5.8 µM (lung cancer).
`O=c1ccn(Cc2cn(-c3cc4ccccc4oc3=O)nn2)c(=O)[nH]1` gave a growth percentage of 88.4% (NCI60 single-dose screen; 10 µM).
For `O=C(Nc1nnc2[nH]c(=S)[nH]c(-c3ccc(Cl)cc3)c1-2)c1ccccc1`, the cell growth was 90.4% (SRB; 10 µM, NCI60 single-dose screen; reference: untreated).
`CCCN1CCN(c2ccc3[nH]c(-c4ccc5[nH]c(-c6ccc(C(F)(F)F)cc6)nc5c4)nc3c2)CC1` has a growth percent of 63% (SRB; 10 µM, 48 h).
`C#C[C@@]1(O)[C@@H](CO)O[C@@H](n2ccc3c(N)ncnc32)[C@@H]1O` has a TGI of 5.56 µM (SRB; NCI-60 screen).
For `CCCCN1CCN(c2ccc3[nH]c(-c4ccc5[nH]c(-c6ccc(OCC)c(OCC)c6)nc5c4)nc3c2)CC1`, the growth percent was 81.3% (SRB; 10 µM, 48 h).
The TGI of `CCCCc1n(Cc2ccc3ccccc3c2)c2ccccc2[n+]1Cc1ccc2ccccc2c1.[Br-]` is reported as 1.35 µM (NCI60 five-dose screen).
`CCCN1CCN(c2ccc3nc(-c4ccc5nc(-c6cc(OC)ccc6OC)[nH]c5c4)[nH]c3c2)CC1` has a growth percent of 110% (SRB; 10 µM, 48 h).
For `Cc1cc(=O)[nH]c(=O)n1Cc1cn(-c2c3ccccc3nc3ccccc23)nn1`, the growth percentage was 67.6% (NCI60 single-dose screen; 10 µM).
For `CCCN1CCN(c2ccc3[nH]c(-c4ccc5[nH]c(-c6cc(OC)c(OC)c(OC)c6)nc5c4)nc3c2)CC1`, the growth percent was 70.5% (SRB; 10 µM, 48 h).
`NNc1nc(-c2ccc(Cl)cc2)c2c(NC(=O)c3ccccc3)nnc-2[nH]1` gave a cell growth of 94.9% (SRB; 10 µM, NCI60 single-dose screen; reference: untreated).
For `CCCCN1CCN(c2ccc3nc(-c4ccc5nc(-c6cc(OC)ccc6OC)[nH]c5c4)[nH]c3c2)CC1`, the growth percent was 87.4% (SRB; 10 µM, 48 h).
`COC(=O)/C=C1\C(=O)C=C2C3CC4CC(CCC4(C)N21)C3(C)NC(C)=O` (centres unmarked) has an IC50 of 18 µM (cell growth, NCI screen).

Some of these lines once more:
The TGI of `Cc1n(Cc2ccc3ccccc3c2)c2ccccc2[n+]1Cc1ccc2ccccc2c1.[Br-]` is reported as 2.06 µM (NCI60 five-dose screen).
For `CCOC(=O)CSc1nc(-c2ccc(Cl)cc2)c2c(NC(=O)c3ccccc3)nnc-2[nH]1`, the cell growth was 109% (SRB; 10 µM, NCI60 single-dose screen; reference: untreated).
